# Measured values pooled from the literature.
# A part holds a random share of what one study measured. Substitutions count along the parent as printed.

# Set 1
# Target: CCND3, cyclin fold, Cln2 fusion (human)
# Method: yeast growth competition, sequencing
# Sample: yeast
# Notes: weak parent motif
# Relative to: not given
# Reading: higher = stronger binding
# Parent: MICAL3 docking peptide (human); LQLRRQLSFSEDS
Variant,normalised enrichment score
LQLRRQLSFSEGS [D12G],-0.0549
LQLRRQLQFSEDS [S8Q],0.294
LQLRKQLSFSEDS [R5K],0.143
LYLRRQLSFSEDS [Q2Y],0.311
LQLRRQLRFSEDS [S8R],-0.0607
LQLRRQLSFSESS [D12S],-0.0941
LQLHRQLSFSEDS [R4H],-0.155
LQKRRQLSFSEDS [L3K],-0.174
LQLRYQLSFSEDS [R5Y],0.228
LFLRRQLSFSEDS [Q2F],0.0411
LQLRRHLSFSEDS [Q6H],-0.226
LQLRRQLSHSEDS [F9H],-0.153
LQLRRDLSFSEDS [Q6D],-0.217
LQLRRQLSFSELS [D12L],0.115
LQLRRQLSYSEDS [F9Y],-0.146
LQDRRQLSFSEDS [L3D],0.0993
LQLRRLLSFSEDS [Q6L],0.193
LQLRRQLTFSEDS [S8T],-0.0499
LQLRRQWSFSEDS [L7W],0.223
LQLRRFLSFSEDS [Q6F],-0.45
LQLRRQLSFSRDS [E11R],0.186
LQLRRQLSFSMDS [E11M],-0.307
LQLGRQLSFSEDS [R4G],-0.323
LQIRRQLSFSEDS [L3I],0.106
LQLRRQLSFSSDS [E11S],-0.0824

# Set 2
# Target: RNA binding protein fox-1 homolog 2, RRM domain, GST-SBP tag (RBFOX2, Homo sapiens, UniProt O43251-10, residues 100-194)
# Method: RNA Bind-n-Seq
# Form: RNA
# Sample: in vitro
# Tested at: 365 nM
# Notes: natural RNA segment, single round, ends assumed
# Relative to: no-protein control
# Reading: higher = stronger binding
# Constant ends, left off below: GGGAGUUCUACAGUCCGACGAUC … UGGAAUUCUCGGGUGCCAA
# Construct (chain): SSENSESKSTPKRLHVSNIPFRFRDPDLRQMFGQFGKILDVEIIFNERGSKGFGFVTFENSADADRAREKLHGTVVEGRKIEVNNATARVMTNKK
Sequence,RBNS enrichment (R)
AUUUUCUUUUAGUGAUACUGUUACCAGUGGCAGUUUGCUUUACAGAGGGGGAGCCCAGGUGGGAGAGAAAUGGGCUUGGGUUCCAUUCUCAGAAGUGAAUUGCAGACUGG,1.01
UUGGACAGCAUUCUGGUGUUCAGCAACCAAUAUGGAAUAUUUGUCAUUAAAUCCAUAUCAGUCUUUUCCAUGUCAUUCUUCUUUGCCACACAUUAAAUGUCACUCAGCUC,0.59
GUCAGUUAAAUUAUGGCCUACACUGAUCUGAGAUGUUCUCCACGUGAGCUGUCUUCAUUUCUCUGUGCUAUGUCCAGAUGUGGGGUUGCUGCAGCCGGGGUUCUAUGGCA,0.362
AUAUUUCAACGCUGUCAAUAAUUGUCUUUAACCUCCAAGUAGGUCUUGCAGAAUCGUCUUCAUUUCAUCAGACCUAUUGGGGGUGAACAGUAAUUAAUAGGAGGCCCAGC,0.387
CCAAGUGUUUCAUGUGAAGAUGUUGAGCCAUUGCUAUCAUGCAUUCCUGUCUCAUGGCAGAAAAUUUUGAAGAUUAAAAAAUAAAAUAAUCAAAAUGUUUCCUCUUUCUA,0.461
CUAUAACAAGGAUAGUUUAUAGUCUUUCCAGUUAUUUAAUGAAUAAAUGACGUUUAUUAAAAACAUUCAACAAAUUGUUGCCUUUUUAAAAUUAUCACACUUGCACAUGA,1.31
GGGCAGGGUUGGCUGGUAUGGUCAUCAGUAUGGGUCGUGACAGUCAAUGUCACUUCCUUCUCUAGGAUCUCUCAGAUUCUAUCUCCCCAAGACAGGCAGGGAAAUUCUAA,0.245
AGAGUCUGGGUUGGUGUGGAUAGCAAAGGAGGAAGUCUGAGCCCCUCAUUGGUCUUCCUCCCACCUGUCCCUUUUCCGGGAAGUUGUGGAAUUGUUGGAAGAAGAGUUUG,0.764
GAGAAAGCUAUCAUGUUCCCGAAGUGCCUUGUUUUCUCUGAUAGAAAUAUAUUUAUAAGGACCUAUUCCAAUAGGCUCUUGGUGUUUCCCAUAUCAAGAUUUCUGCUAGC,0.447
CCGCACUUAGCAGGGGGACGGGACCGAAGCUCCCUCAAUCCUUGUCUGGUACUAGAUUUGCUCCUGUCCCACCCCGCAGUCCCCUGAGGAGGGCGAUGUGCGCCCUCUUU,0.27
CCCAGGGCCCGGGGUCCACAGAGGAUGAGGGUUGUGGCAGGGCCGUCCAUCAGCGCUGACCUUCCGGGGGCCCAGAGCUUCCCAGCCCUGAGUCAAGCUGGCCAUGAACG,0.523
CCAUUCUAUCUUUGUAAAACAGACAAGAUAUGCACUUGACAUAGUAGCAAAUUGGUUCUGAAUUAUGCAACUGUUUGCUAUUUAGUAAACUAGCAAAUGAUGCAUGUAUU,1.22

# Set 3
# Target: ABI1, truncated, D143A, DHFR fusion (Arabidopsis thaliana)
# Method: DHFR PCA, deep sequencing
# Sample: yeast
# Notes: methotrexate growth selection, single substitutions
# With: (+)-ABA 0.032 µM
# Relative to: wild-type fitted maximum
# Reading: higher = stronger binding
# Parent: PYL1, truncated, DHFR fusion (Arabidopsis thaliana); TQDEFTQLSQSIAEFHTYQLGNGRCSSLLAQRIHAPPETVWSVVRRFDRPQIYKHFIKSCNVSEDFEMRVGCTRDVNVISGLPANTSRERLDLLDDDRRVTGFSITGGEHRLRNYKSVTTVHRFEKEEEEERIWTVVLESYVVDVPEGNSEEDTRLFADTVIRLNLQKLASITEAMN
Variant,relative binding score [%]
V78F,102
D96P,-2.11
T6F,33.3
S63N,20.9
P37Y,-2.88
G107H,11.1
G108T,-3.73
C25S,-2.56
L8Q,6.07
C25A,16

# Set 4
# Target: Ras GTPase-activating protein-binding protein 1, full length (G3BP1, Homo sapiens, UniProt Q13283)
# UniProt Q13283, sequence (whole entry, looked up): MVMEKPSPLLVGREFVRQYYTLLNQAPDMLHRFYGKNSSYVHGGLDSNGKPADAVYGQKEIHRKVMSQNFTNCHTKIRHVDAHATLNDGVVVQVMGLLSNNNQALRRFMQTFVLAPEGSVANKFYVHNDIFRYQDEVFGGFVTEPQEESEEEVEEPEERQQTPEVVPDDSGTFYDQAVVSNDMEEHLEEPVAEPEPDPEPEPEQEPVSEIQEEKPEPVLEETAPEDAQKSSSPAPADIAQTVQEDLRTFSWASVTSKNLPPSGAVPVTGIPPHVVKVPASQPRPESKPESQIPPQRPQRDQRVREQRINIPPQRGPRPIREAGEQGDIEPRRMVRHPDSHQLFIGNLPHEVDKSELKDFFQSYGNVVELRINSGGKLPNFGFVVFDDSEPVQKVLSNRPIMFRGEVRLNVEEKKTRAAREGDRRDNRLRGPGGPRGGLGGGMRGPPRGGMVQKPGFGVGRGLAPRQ
# Method: RNA Bind-n-Seq
# Form: RNA
# Sample: in vitro
# Tested at: 200 nM
# Notes: whole 134-nt RNA, ends assumed
# With: 150 mM LiCl
# Relative to: input library
# Reading: higher = stronger binding
# Library: 7-deaza-guanosine replaces G
# Constant ends, left off below: GGGAGUUCUACAGUCCGACGAUC … UGGAAUUCUCGGGUGUCAAGG
Sequence,log2 enrichment
UGGGAGGUGGAUUUUGUUUAUUUUUUUAGCUCAUUUCCAGGGGUGGGAAUUUUUUUUUAAUAUGUGUCAUGAAUAAAGUUGGUUUUGAAA,0.165
UGUGCUACACAUCGUAUGUACCGAAUCGGCCCCCCCGGGGCCCCCCCGGGGCCCCCCCGGGGAAAGUAUUAUGUUACGCCGUUCGGAUCU,-0.898
CUCAAGUCCUGUGCUACACAUCGUAUGUACCGAAUCGGAAAGGAAAGGAAAGGGAAAGUAUUAUGUUACGCCGUUCGGAUCUGCACUUCC,-0.000245
GCAGUAAGUAAAAACAAAUGGAAAUGCUUCGGAUAGUGGCAGGGGUGGGGGUUGCUAAGGAAAGGGUGGGAUGGGAGUGGGUAAAGAGUU,0.518
CCUGUGCUACACAUCGUAUGUACCGAAUCAAACCCCCCCAAAUUUUUAAACCCCCCCAAAAAAGUAUUAUGUUACGCCGUUCGGAUCUGC,1.1
CUCAAGUCCUGUGCUACACAUCGUAUGUACCGAAUCGGGAGGGUGGGUUUGGGAAAGUAUUAUGUUACGCCGUUCGGAUCUGCACUUCCA,-0.271
GCAGGAAGUAAAAACAAAUGGAAAUGCUUCGGAUAGUGGCAGGGGUGGGGGUUGCUAAGGAAAGGGUGGGAUGGGAGUGGGUAACGAGUU,0.362
UUAGAAGAAGUGGAAAGGAAAAAACGCCAAAGGGAGUUGGAAAUUGAAGAACGAGAACGGCGUAGAGAGGAAGAGAGAAGACUUGGCGAU,-0.385
CACAGACAACACGCACUCACACAGACACAGAGGGAAGGGGUUGGGAUGGGGACAGGGUGCACAGCAGGGCGGGGUAGGACCCCAGCCCCU,0.194
GCAGGAAGUAAAAACAAAUGGAAAUGCUUCGGAUAGUGGCAGGGGUGGGGGUUGCUAAGGAAAGGGUGGGAUGGGAGUGUGUAAAGAGUU,0.0957
UGGCCCUGGUGGCAUGCGGGGAGGAAGAGGUUGCCUCAUGGAUCGUGGUGGUCCCGGUGGAAUGUUCAGAGGUGGCCGUGGUGGAGACAG,0.343

# Set 5
# Target: NFE2L2, bZIP domain (human)
# Method: DHFR protein complementation
# Sample: yeast
# Notes: single substitutions, most at no-binding floor
# Relative to: wild-type JUN-FOS pair
# Reading: higher = stronger binding
# Parent: JUN, bZIP domain (human); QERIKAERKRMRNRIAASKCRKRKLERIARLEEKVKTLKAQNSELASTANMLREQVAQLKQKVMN; partner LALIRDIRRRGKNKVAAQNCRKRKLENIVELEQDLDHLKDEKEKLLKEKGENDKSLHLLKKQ
Variant,binding fitness
L45A,-1.47 natural log
A57L,-1.46 natural log
L52M,-1.5 natural log
Q55H,-1.48 natural log
I28W,-1.56 natural log
T48H,-1.34 natural log
Q58H,-1.26 natural log
L38Q,-1.35 natural log
I28C,-1.54 natural log
E54N,-1.46 natural log
A46N,-1.53 natural log
I28E,-1.08 natural log
A29H,-1.45 natural log
V56S,-1.37 natural log
S47Q,-0.986 natural log
T48L,-1.29 natural log
Q55W,-1.37 natural log
S47T,-1.38 natural log
K34D,-1.62 natural log
R30A,-1.29 natural log
E32K,-1.61 natural log
N42S,-1.46 natural log
T48F,-1.28 natural log
T37E,-1.35 natural log
A40W,-1.47 natural log

# Set 6
# Target: Histone acetyltransferase KAT6A, winged helix 1, GST fusion (KAT6A, Homo sapiens, UniProt Q92794, residues 1-85)
# Method: protein binding microarray
# Form: double-stranded DNA, one strand shown
# Sample: in vitro
# Tested at: not given
# Notes: 8-mer, flanks averaged, mean of 2 arrays, mostly near background
# Relative to: not given
# Reading: higher = stronger binding
# Construct (chain): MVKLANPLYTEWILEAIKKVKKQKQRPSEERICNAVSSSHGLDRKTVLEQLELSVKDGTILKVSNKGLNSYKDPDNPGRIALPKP
Sequence,E-score
GTGTGTGA,-0.173
GTGCTAAC,0.00184
CCTCACGA,-0.12
CCCATAGG,-0.114
AGAGGGGA,-0.191
AGGTATCC,-0.0653
CAGCCGGC,0.385
TCTTCCCA,-0.215
ATTACCAG,0.0417
AAGTCGTG,-0.014
GGTAAACC,0.0784
AACTGCAA,-0.156
GGAAGACC,0.0624
AGGCAGCG,0.189
CTATACGC,0.176
GATTCCGC,0.179
GAAGACAA,-0.173
AAGTAGTA,-0.166
AAAAAAAA,-0.157
ACTTGGGG,-0.0997
AAACCGAT,0.0143
GCCATTGA,-0.0444
ATAAACTC,-0.146

# Repeated from above (set 4):
Sequence,log2 enrichment
GCAGGAAGUAAAAACAAAUGGAAAUGCUUCGGAUAGUGGCAGGGGUGGGGGUUGCUAAGGAAAGGGUGGGAUGGGAGUGGGUAACGAGUU,0.362
GCAGGAAGUAAAAACAAAUGGAAAUGCUUCGGAUAGUGGCAGGGGUGGGGGUUGCUAAGGAAAGGGUGGGAUGGGAGUGUGUAAAGAGUU,0.0957
CCUGUGCUACACAUCGUAUGUACCGAAUCAAACCCCCCCAAAUUUUUAAACCCCCCCAAAAAAGUAUUAUGUUACGCCGUUCGGAUCUGC,1.1
UGGCCCUGGUGGCAUGCGGGGAGGAAGAGGUUGCCUCAUGGAUCGUGGUGGUCCCGGUGGAAUGUUCAGAGGUGGCCGUGGUGGAGACAG,0.343
CACAGACAACACGCACUCACACAGACACAGAGGGAAGGGGUUGGGAUGGGGACAGGGUGCACAGCAGGGCGGGGUAGGACCCCAGCCCCU,0.194
CUCAAGUCCUGUGCUACACAUCGUAUGUACCGAAUCGGAAAGGAAAGGAAAGGGAAAGUAUUAUGUUACGCCGUUCGGAUCUGCACUUCC,-0.000245
CUCAAGUCCUGUGCUACACAUCGUAUGUACCGAAUCGGGAGGGUGGGUUUGGGAAAGUAUUAUGUUACGCCGUUCGGAUCUGCACUUCCA,-0.271
GCAGUAAGUAAAAACAAAUGGAAAUGCUUCGGAUAGUGGCAGGGGUGGGGGUUGCUAAGGAAAGGGUGGGAUGGGAGUGGGUAAAGAGUU,0.518
UGUGCUACACAUCGUAUGUACCGAAUCGGCCCCCCCGGGGCCCCCCCGGGGCCCCCCCGGGGAAAGUAUUAUGUUACGCCGUUCGGAUCU,-0.898
UUAGAAGAAGUGGAAAGGAAAAAACGCCAAAGGGAGUUGGAAAUUGAAGAACGAGAACGGCGUAGAGAGGAAGAGAGAAGACUUGGCGAU,-0.385
UGGGAGGUGGAUUUUGUUUAUUUUUUUAGCUCAUUUCCAGGGGUGGGAAUUUUUUUUUAAUAUGUGUCAUGAAUAAAGUUGGUUUUGAAA,0.165
